Measured values of several laboratories.
Lines come from different studies, so protocols differ. ± gives the spread as reported.
CYP2B6: Cytochrome P450 2B6 (CYP2B6, Homo sapiens, UniProt P20813)

SMILES	target or system	test	test system	conditions	how to read	endpoint	value
COC(=O)CC1C2CCCN3CCCC(CN1Cc1ccc(Cl)cc1)C23 (stereo not shown)	HEK293T					CC50	> 200000 nM
Nc1nc2c([C@@H]3O[C@@H]4COP(=O)(O)O[C@H]5[C@@H](O)[C@H](c6scc7c(=O)[nH]c(N)nc67)O[C@@H]5COP(=O)(O)O[C@H]4[C@H]3O)scc2c(=O)[nH]1					reference: parent monomeric nucleoside	relative emission quantum yield	~17%
O=C(O)CC1C2CCCN3CCCC(CN1CCc1ccc(Cl)cc1)C23 (stereo not shown)	HEK293T					CC50	83300 nM
C[C@@](O)(C(F)F)[C@H](NC(=O)c1ccc(C#CC#CC2CC2)cc1)C(=O)NO			CD-1 mouse	oral, 40 mg/kg, fasted		CL/F	37.7 ± 7.5 mL/min/kg
CC(C)[C@H](NC(=O)CNC(=O)[C@H](CCC(N)=O)NC(=O)[C@H](C)N)C(=O)O			human	single dose, 1 mg/kg		possibly related adverse events	16.7%
CCN(Cc1ccccc1)C(=O)CCc1nc(CN2CCN(C(=O)Cc3ccc(OC)c(OC)c3)CC2)no1	KCNQ5 (Homo sapiens, UniProt Q9NR82)	whole-cell patch clamp	transfected cells	300 nM		V1/2 of activation	-50.1 ± 1.52 mV
N#Cc1ccc(-c2ccc(-c3cccs3)o2)cc1	Salmonella typhimurium	mutagenicity, Ames test	TA1535	5 or 10 µM, 48 h, pH 7.4, lower tested concentration, added: rat liver S9 mix		revertant colonies	15.3 ± 4.2 colonies/plate
CC(=O)NC(Cc1ccc(Br)c(Cl)c1)C(=O)N[C@@H](C)C(=O)N1CCC[C@H]1C(=O)N1CCC[C@H]1C(=O)N[C@@H](CCC(=O)O)C(=O)N[C@@H](Cc1c[nH]cn1)C(=O)N[C@@H](CO)C(=O)N[C@H](C(=O)N[C@@H](C)C(N)=O)[C@@H](C)OP(=O)(O)O (stereo partly shown)	ITK (Homo sapiens, UniProt Q08881)	enzyme activity, inhibitor		10 µM		inhibition	0.6%
CCCCCCCCC(=O)NCc1ccc(O)c(OC)c1	mAb 5-D8	antibody binding, indirect competitive ELISA		added: coating antigen hapten 1-OVA		IC50	0.0206 µg/mL
CCCCCc1cc(O)c2c(c1)OC(C)(C)C1CCC(C)=CC21 (single isomer, unassigned; (-))			human liver microsome incubation mixture			unbound fraction	0.048 ± 0.002
CCC(=O)N(C)c1ccc(Cl)c(Cl)c1	Salmonella typhimurium	Ames test	TA1537	0.50 mg/plate, without S9 activation		revertants	1 ± 0.6 revertants/plate
O=C(O)CCC(NP(=O)(O)OCCC[C@@H](NC(=O)CCC(NC(=O)CCCCCNC(=O)c1ccc([18F])cc1)C(=O)O)C(=O)O)C(=O)O (stereo partly shown)	PC-3 tumour model		host not given, spleen	intravenous, 2 h, tumour-bearing		tracer uptake	1.38 %ID/g
CC(CCC(=O)NCC(=O)O)C1CCC2C3CCC4CC(OC5OC(C(=O)O)C(O)C(O)C5O)CCC4(C)C3CC(O)C12C (stereo not shown)	SLCO1B1 (Homo sapiens, UniProt Q9Y6L6)	substrate	transfected HEK293 cells	1 µM, 2 min	reference: wild-type HEK293 cells	uptake ratio	77.8
O=C(O)CCC(NP(=O)(O)OCCC[C@@H](NC(=O)CCC(NC(=O)c1ccc([18F])cc1)C(=O)O)C(=O)O)C(=O)O (stereo partly shown)	PC-3 tumour model		host not given, blood	intravenous, 2 h, tumour-bearing		tracer uptake	0.08 %ID/g
CC[C@H](C)C(=O)N1CCC(NC(=O)Nc2ccc(OC(F)(F)F)c(F)c2)CC1			healthy volunteers	oral, 8 mg single dose		subjects with feeling hot TEAE	16.7%
N=C(N)NCCC[C@@H]1NC(=O)[C@H](CCCCNC(=O)CC[C@H](NC(=O)CCOCCOCCOCCOCCNC(=O)CN2CCN(CC(=O)O)CCN(CC(=O)O)CCN(CC(=O)O)CC2)C(=O)NCCCC[C@@H]2NC(=O)[C@@H](Cc3ccccc3)NC(=O)[C@H](CC(=O)O)NC(=O)CNC(=O)[C@H](CCCNC(=N)N)NC2=O)NC(=O)[C@@H](Cc2ccccc2)NC(=O)[C@H](CC(=O)O)NC(=O)CNC1=O [indium-111 labelled]			athymic nude mice, female, U-87 MG glioma xenograft, tumour and blood	intravenous, 0.5 h	reference: tumour over blood	tumour to tissue ratio	5.43 ± 0.99
O=C(O)CCC(NP(=O)(O)OCCC[C@@H](NC(=O)CCC(NC(=O)CCCCCNC(=O)CCCCCNC(=O)c1ccc([18F])cc1)C(=O)O)C(=O)O)C(=O)O (stereo partly shown)	PC-3 tumour model		host not given, lung	intravenous, 2 h, tumour-bearing		tracer uptake	0.09 %ID/g

SMILES	target or system	test	test system	conditions	how to read	endpoint	value
COc1ccc(CNc2nc(N3CCC[C@H]3CO)ncc2C(=O)NN)cc1Cl	Salmonella typhimurium		TA97a	500 µg/plate, 48 h, added: rat liver S9		revertant count	185 ± 9
C=CC(=O)Nc1cc(Nc2nccc(-c3cn(C)c4ccccc34)n2)c(OCC(F)(F)F)nc1N(C)CCN(C)C	CYP2B6	enzyme activity, inhibitor	human, liver microsomes	3.33 µM		activity vs control	102%
COc1cccc(C2(O)CCCCC2CN(C)C)c1.Cc1ccc(-c2cc(C(F)(F)F)nn2-c2ccc(S(N)(=O)=O)cc2)cc1.Cl (racemic)			healthy human, fasted	oral, dose not given		subjects with euphoric mood	1 /1
CCCC[C@H](NC(=O)CNC(=O)CNC(=O)c1ccc(NN)nc1)C(=O)N[C@H]1CC(=O)NCCCC[C@@H](C(N)=O)NC(=O)[C@H](Cc2c[nH]c3ccccc23)NC(=O)[C@H](CCCNC(=N)N)NC(=O)[C@@H](Cc2ccccc2)NC(=O)[C@H](Cc2c[nH]cn2)NC1=O [technetium-99m labelled]			C57 mouse, B16/F1 melanoma-bearing, brain	intravenous, 24 h		tissue uptake	0.01 ± 0.01 %ID/g
CN[C@](C)(C[18F])C(=O)O	A549 tumour model		host not given, blood	1 h, tumour-bearing		tracer uptake	0.8 %ID/g
Cc1nc(=O)c2cc(CN(C)c3ccc(C(=O)NCc4cccc(C(=O)O)c4)s3)ccc2[nH]1	Mycobacterium tuberculosis		H37Rv	10 µM, 24 h	reference: amount consumed	parent recovered from bacteria	14 ± 3%
C[C@@H](NC(=O)[C@@H](CCC(N)=O)NC(=O)[C@@H](C)NC(=O)[C@@H](CCCCN)NC(=O)[C@@H](CCC(N)=O)NC(=O)[C@@H](C)NC(=O)[C@@H](CCCCN)NC(=O)[C@@H](CCC(N)=O)NC(=O)[C@@H](C)NC(=O)[C@@H](CCC(N)=O)NC(=O)[C@@H](CCCCN)NC(=O)[C@@H](C)NC(=O)[C@@H](CCC(N)=O)NC(=O)[C@@H](CCCCN)NC(=O)[C@@H](C)NC(=O)[C@@H](CCC(N)=O)NC(=O)[C@@H](C)NC(=O)[C@@H](CCCCN)NC(=O)[C@@H](CCC(N)=O)NC(=O)[C@@H](C)NC(=O)[C@@H](CCCCN)NC(=O)[C@@H](CO)NC(=O)[C@@H](Cc1ccc(O)cc1)NC(=O)CNC(=O)CNC(=O)CN)C(=O)N[C@H](CCCCN)C(=O)N[C@H](CCC(N)=O)C(=O)N[C@H](C)C(=O)N[C@H](CCCCN)C(=O)N[C@H](CCC(N)=O)C(=O)O		binding, SPR two-state model	rVλ6Wil fibrils			Kd	22 nM
CN(C)CC1CCCCC1(O)c1cccc(O)c1 (stereo not shown)			Caco-2	50 µM, 3 h, pH 7.4		Papp A→B	15.2 ×10⁻⁶ cm/s
N[C@]1(c2ccccc2Cl)CCC[C@H](O)C1=O			Wistar rat	intravenous, 20 mg/kg, over 60 min		brain to plasma ratio	~2 fold
N=C(N)NCCC[C@@H]1NC(=O)[C@H](CCCCNC(=O)CC[C@H](NC(=O)CCOCCOCCOCCOCCNC(=O)CC[C@H](NC(=O)CN2CCN(CC(=O)O)CCN(CC(=O)O)CCN(CC(=O)O)CC2)C(=O)NCCOCCOCCOCCOCCC(=O)N[C@@H](CCC(=O)NCCCC[C@@H]2NC(=O)[C@@H](Cc3ccccc3)NC(=O)[C@H](CC(=O)O)NC(=O)CNC(=O)[C@H](CCCNC(=N)N)NC2=O)C(=O)NCCCC[C@@H]2NC(=O)[C@@H](Cc3ccccc3)NC(=O)[C@H](CC(=O)O)NC(=O)CNC(=O)[C@H](CCCNC(=N)N)NC2=O)C(=O)NCCCC[C@@H]2NC(=O)[C@@H](Cc3ccccc3)NC(=O)[C@H](CC(=O)O)NC(=O)CNC(=O)[C@H](CCCNC(=N)N)NC2=O)NC(=O)[C@@H](Cc2ccccc2)NC(=O)[C@H](CC(=O)O)NC(=O)CNC1=O [indium-111 labelled]			female athymic nude mice, kidney	intravenous, 3 µCi, 4 h, U-87 MG glioma xenograft		tissue uptake	5.68 ± 0.66 %ID/g
CCN(CC)Cc1cc(Nc2c(C3CCCC3)c(C)nc3cc(Cl)ccc23)ccc1O	BHK-21 DENV2 replicon cells			24 h		CC50	16900 ± 2060 nM
COc1ccc(CNc2nc(N3CCC[C@H]3CO)ncc2C(=O)NNC(=O)c2cnc(N3CCC[C@H]3CO)nc2NCc2ccc(OC)c(Cl)c2)cc1Cl	Salmonella typhimurium		TA1535	62.5 µg/plate, 48 h, added: rat liver S9		revertant count	32 ± 2
CC[C@H](C)[C@H](NC(=O)[C@H](CC(=O)O)NC(=O)[C@@H](NC(=O)[C@@H]1CCCN1C(=O)[C@H](CCCNC(=N)N)NC(=O)CCCCCCCCc1cn(CCOCCOCCOCCOCCOCCNC(=O)CCCCC[N+]2=C(/C=C/C=C/C=C3/N(C)c4ccccc4C3(C)C)C(C)(C)c3ccccc32)nn1)[C@@H](C)O)C(=O)N[C@@H](CCCCN)C(=O)N[C@H]1CSSC[C@@H]2NC(=O)[C@H](CCCNC(=N)N)NC(=O)CNC(=O)[C@H](CC(N)=O)NC(=O)[C@H]([C@@H](C)O)NC(=O)[C@H](CCCCN)NC(=O)CNC(=O)[C@H](Cc3ccccc3)NC(=O)[C@H](CCCNC(=N)N)NC(=O)[C@H](CO)NC(=O)[C@H](CCCCN)NC(=O)[C@@H]3CSSC[C@@H](C(=O)N[C@@H](Cc4ccccc4)C(=O)O)NC(=O)[C@H](CC(=O)O)NC(=O)[C@H](CSSC[C@H](NC(=O)[C@H](CCC(N)=O)NC(=O)[C@H](Cc4ccc(O)cc4)NC(=O)[C@H](CO)NC(=O)[C@H](CCC(=O)O)NC(=O)[C@H](CO)NC1=O)C(=O)N[C@@H](Cc1ccccc1)C(=O)N1CCC[C@H]1C(=O)N[C@@H](C(C)C)C(=O)N3)NC(=O)[C@H](Cc1ccccc1)NC(=O)CNC(=O)[C@H](CC(N)=O)NC(=O)[C@H](C(C)C)NC2=O	KCNH2 (Homo sapiens, UniProt Q12809)	ion current, inhibitor, two-electrode voltage clamp		pH 7.4, oocytes		IC50	64.1 nM
CCCCCc1cc(O)c2c(c1)OC(C)(C)C1CCC(CO)=CC21 (stereo not shown)	CYP2B6	inhibitor	human, pooled liver microsomes	pH 7.4, added: bupropion		IC50	770 ± 350 nM
CSCC[C@H](NC(=O)[C@H](CC(C)C)NC(=O)[C@H](Cc1c[nH]cn1)NC(=O)CNC(=O)[C@@H](NC(=O)[C@H](C)NC(=O)[C@H](Cc1c[nH]c2ccccc12)NC(=O)[C@H](CCC(N)=O)NC(=O)CCCCCNC(=O)CNC(=O)CNC(=O)CNC(=O)CSC(C)=O)C(C)C)C(N)=O [technetium-99m labelled]			nude mouse, PC-3 xenograft, spleen	90 min, added: excess unlabelled conjugate		tissue uptake	0.65 ± 0.13 %ID/g
COc1cc(C(=O)NCCOCCOCCOCCNC(=O)c2ccc([18F])nc2)ccc1NC(=O)C1NC(CC(C)(C)C)C(C#N)(c2ccc(Cl)cc2F)C1c1cccc(Cl)c1F (stereo not shown)	HepG2 tumour model		host not given, kidney	30 min, tumour-bearing		tracer uptake	15 %ID/g
CC[C@H](C)[C@H](NC(=O)[C@H](CC(=O)O)NC(=O)[C@@H](NC(=O)[C@@H]1CCCN1C(=O)[C@@H](N)CCCNC(=N)N)[C@@H](C)O)C(=O)N[C@@H](CCCCN)C(=O)N[C@H]1CSSC[C@@H]2NC(=O)[C@H](CCCNC(=N)N)NC(=O)CNC(=O)[C@H](CC(N)=O)NC(=O)[C@H]([C@@H](C)O)NC(=O)[C@H](CCCCN)NC(=O)CNC(=O)[C@H](Cc3ccccc3)NC(=O)[C@H](CCCNC(=N)N)NC(=O)[C@H](CO)NC(=O)[C@H](CCCCN)NC(=O)[C@@H]3CSSC[C@@H](C(=O)N[C@@H](Cc4ccccc4)C(=O)O)NC(=O)[C@H](CC(=O)O)NC(=O)[C@H](CSSC[C@H](NC(=O)[C@H](CCC(N)=O)NC(=O)[C@H](Cc4ccc(O)cc4)NC(=O)[C@H](CO)NC(=O)[C@H](CCC(=O)O)NC(=O)[C@H](CO)NC1=O)C(=O)N[C@@H](Cc1ccccc1)C(=O)N1CCC[C@H]1C(=O)N[C@@H](C(C)C)C(=O)N3)NC(=O)[C@H](Cc1ccccc1)NC(=O)CNC(=O)[C@H](CC(N)=O)NC(=O)[C@H](C(C)C)NC2=O	KCNH2 (Homo sapiens, UniProt Q12809, S631C)	ion current, inhibitor, two-electrode voltage clamp		pH 7.4, oocytes		IC50	41 nM

A few entries again:
SMILES	target or system	test	test system	conditions	how to read	endpoint	value
CC[C@H](C)C(=O)N1CCC(NC(=O)Nc2ccc(OC(F)(F)F)c(F)c2)CC1			healthy volunteers	oral, 8 mg single dose		subjects with feeling hot TEAE	16.7%
N=C(N)NCCC[C@@H]1NC(=O)[C@H](CCCCNC(=O)CC[C@H](NC(=O)CCOCCOCCOCCOCCNC(=O)CN2CCN(CC(=O)O)CCN(CC(=O)O)CCN(CC(=O)O)CC2)C(=O)NCCCC[C@@H]2NC(=O)[C@@H](Cc3ccccc3)NC(=O)[C@H](CC(=O)O)NC(=O)CNC(=O)[C@H](CCCNC(=N)N)NC2=O)NC(=O)[C@@H](Cc2ccccc2)NC(=O)[C@H](CC(=O)O)NC(=O)CNC1=O [indium-111 labelled]			athymic nude mice, female, U-87 MG glioma xenograft, tumour and blood	intravenous, 0.5 h	reference: tumour over blood	tumour to tissue ratio	5.43 ± 0.99
O=C(O)CCC(NP(=O)(O)OCCC[C@@H](NC(=O)CCC(NC(=O)CCCCCNC(=O)CCCCCNC(=O)c1ccc([18F])cc1)C(=O)O)C(=O)O)C(=O)O (stereo partly shown)	PC-3 tumour model		host not given, lung	intravenous, 2 h, tumour-bearing		tracer uptake	0.09 %ID/g
COc1ccc(CNc2nc(N3CCC[C@H]3CO)ncc2C(=O)NN)cc1Cl	Salmonella typhimurium		TA97a	500 µg/plate, 48 h, added: rat liver S9		revertant count	185 ± 9
